Measured values pooled from the literature.
Lines come from different studies, so protocols differ. “And” joins repeats or separate records; there may be more than shown. Numbers after ± are the reported error.

| Structure (SMILES) | test | test system | conditions | scale | endpoint | result |
| --- | --- | --- | --- | --- | --- | --- |
| COc1ccc2c3c([nH]c2c1)[C@H](CC(C)C)N1C(=O)[C@H](CCC(=O)NC(C)C)NC(=O)[C@@H]1C3 | UPLC-QTOFMS | wild-type mouse, serum | oral, 50 mg/kg |  | AUC | increased |
| CO[C@H]1/C=C/O[C@@]2(C)Oc3c(C)c(O)c4c(c3C2=O)C2=NC3(CCN(CC(C)C)CC3)NC2=C(NC(=O)/C(C)=C\C=C\[C@H](C)[C@H](O)[C@@H](C)[C@@H](O)[C@@H](C)[C@H](OC(C)=O)[C@@H]1C)C4=O |  | CD-1 mouse, plasma | oral, dose not given, efficacy dose |  | AUC | 21500 ng·h/mL |
| CS(=O)(=O)CCNCc1ccc(-c2ccc3ncnc(Nc4ccc(OCc5cccc(F)c5)c(Cl)c4)c3c2)o1 |  | female FVB mouse, plasma | intraperitoneal, 60 mg/kg every 3 h ×5, extrapolated to steady state |  | AUC | 39900 ng·h/mL |
| COc1cc2c3c(n(CCCNC(C)C)c(=O)c2cc1OC)-c1nc2c(cc1C3=O)OCO2 |  | male CD1 mouse, plasma | intravenous, 1 mg/kg |  | AUC extrapolated | 14.8% |
| COc1ccc2nccc(N3CCc4c(cc(Cn5ccnc5)cc4-c4cn(C)nc4C(F)(F)F)C3=O)c2c1 |  | CD-1 mouse, male, plasma | intravenous, 3 mg/kg |  | AUC extrapolated | 0.3% |
| CC/C(=C(/c1ccc(OCCNC)cc1)c1ccc(B2OC(C)(C)C(C)(C)O2)cc1)c1ccccc1 |  | C57BL/6 mouse | oral, 1 mg/kg | reference: endoxifen | AUC of endoxifen | 80 fold |
| CN(C)C(=O)c1cc2cnc(Nc3ccc(-c4ccc5c(=O)cc(N6CCOCC6)oc5c4)cc3)nc2n1C1CCCC1.Cl |  | BALB/c mouse, plasma | oral, 20 mg/kg |  | AUC extrapolated | 4.4 ± 2.2% |
| CCc1cc(C(=O)NC)c2nccc(N3CCc4c(cc(Cn5ccnc5)cc4-c4cn(C)nc4C(F)(F)F)C3=O)c2c1 |  | CD-1 mouse, male, plasma | oral, 150 mg/kg |  | AUC extrapolated | 0% |
| COc1cc2c3c(n(CCCNCCO)c(=O)c2cc1OC)-c1nc2c(cc1C3=O)OCO2 |  | male CD1 mouse, plasma | oral, 10 mg/kg |  | AUC extrapolated | 37.3% |
| CNC(=O)c1cc(OC)cc2c(N3CCc4c(cc(Cn5ccnc5)cc4-c4cn(C)nc4C(F)(F)F)C3=O)ccnc12 |  | CD-1 mouse, male, plasma | intravenous, 3 mg/kg |  | AUC extrapolated | 0.1% |
| CCNCCCn1c2c(c3cc(OC)c(OC)cc3c1=O)C(=O)c1cc3c(nc1-2)OCO3 |  | male CD1 mouse, plasma | oral, 10 mg/kg |  | AUC extrapolated | 8.81% |
| COc1ccc2c3c([nH]c2c1)[C@H](CC(C)C)N1C(=O)[C@H](CC(=O)NC(C)C)NC(=O)[C@@H]1C3 |  | wild-type mouse, male, serum | oral, 100 mg/kg |  | AUC | 142 µM·h and 159 µM·h and 127 µM·h |
| CCc1cc(OC)c2nccc(N3CCc4c(cc(Cn5ccnc5)cc4-c4cn(C)nc4C(F)(F)F)C3=O)c2c1 |  | CD-1 mouse, male, plasma | intravenous, 3 mg/kg |  | AUC extrapolated | 0.1% |

For quick reference, copied from above:
| Structure (SMILES) | test | test system | conditions | scale | endpoint | result |
| --- | --- | --- | --- | --- | --- | --- |
| COc1cc2c3c(n(CCCNC(C)C)c(=O)c2cc1OC)-c1nc2c(cc1C3=O)OCO2 |  | male CD1 mouse, plasma | intravenous, 1 mg/kg |  | AUC extrapolated | 14.8% |
